# Published values collected from several papers.
# Parts stem from different laboratories: compare values within a part only. Positions count from the first letter of the parent shown.
# Chain of UniProt Q9HC98 (whole entry, looked up): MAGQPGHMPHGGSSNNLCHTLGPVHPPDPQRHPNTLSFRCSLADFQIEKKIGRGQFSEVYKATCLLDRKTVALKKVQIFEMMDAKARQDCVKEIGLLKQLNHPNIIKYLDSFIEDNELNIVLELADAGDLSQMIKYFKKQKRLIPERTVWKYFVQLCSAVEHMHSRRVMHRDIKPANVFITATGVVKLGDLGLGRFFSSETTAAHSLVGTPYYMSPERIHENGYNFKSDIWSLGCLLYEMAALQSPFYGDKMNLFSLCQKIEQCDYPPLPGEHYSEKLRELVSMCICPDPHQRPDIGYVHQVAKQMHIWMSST
# Chain of UniProt P27361 (whole entry, looked up): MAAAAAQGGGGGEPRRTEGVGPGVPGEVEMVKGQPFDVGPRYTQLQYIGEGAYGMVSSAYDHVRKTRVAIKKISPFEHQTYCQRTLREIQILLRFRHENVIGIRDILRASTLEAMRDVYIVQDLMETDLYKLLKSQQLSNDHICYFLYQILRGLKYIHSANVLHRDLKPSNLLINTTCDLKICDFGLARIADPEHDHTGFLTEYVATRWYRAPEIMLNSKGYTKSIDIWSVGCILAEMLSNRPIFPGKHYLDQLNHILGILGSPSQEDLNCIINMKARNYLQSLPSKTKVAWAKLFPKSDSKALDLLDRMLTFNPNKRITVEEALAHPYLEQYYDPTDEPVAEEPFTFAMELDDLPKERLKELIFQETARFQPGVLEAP
# Chain of UniProt Q9UHD2 (whole entry, looked up): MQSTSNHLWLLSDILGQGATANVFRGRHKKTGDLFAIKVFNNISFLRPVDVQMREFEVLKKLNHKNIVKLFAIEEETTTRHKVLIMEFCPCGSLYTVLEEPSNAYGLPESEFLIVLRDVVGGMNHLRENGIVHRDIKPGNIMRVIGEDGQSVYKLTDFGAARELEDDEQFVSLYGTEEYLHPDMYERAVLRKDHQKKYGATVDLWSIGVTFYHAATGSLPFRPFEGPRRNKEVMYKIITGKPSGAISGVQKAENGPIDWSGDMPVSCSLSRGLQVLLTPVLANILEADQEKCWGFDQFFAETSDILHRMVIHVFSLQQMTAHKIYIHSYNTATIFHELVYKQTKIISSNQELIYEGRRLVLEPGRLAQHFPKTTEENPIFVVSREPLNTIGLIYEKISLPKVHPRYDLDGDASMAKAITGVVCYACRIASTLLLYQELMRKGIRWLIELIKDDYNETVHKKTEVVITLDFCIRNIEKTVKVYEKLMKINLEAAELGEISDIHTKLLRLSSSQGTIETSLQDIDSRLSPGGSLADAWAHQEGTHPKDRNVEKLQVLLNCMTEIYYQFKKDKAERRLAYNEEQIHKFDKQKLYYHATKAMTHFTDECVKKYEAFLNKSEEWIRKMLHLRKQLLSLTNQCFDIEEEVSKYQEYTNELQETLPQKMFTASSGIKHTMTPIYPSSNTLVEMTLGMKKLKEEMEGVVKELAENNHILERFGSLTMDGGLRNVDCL
# Chain of UniProt P78368 (whole entry, looked up): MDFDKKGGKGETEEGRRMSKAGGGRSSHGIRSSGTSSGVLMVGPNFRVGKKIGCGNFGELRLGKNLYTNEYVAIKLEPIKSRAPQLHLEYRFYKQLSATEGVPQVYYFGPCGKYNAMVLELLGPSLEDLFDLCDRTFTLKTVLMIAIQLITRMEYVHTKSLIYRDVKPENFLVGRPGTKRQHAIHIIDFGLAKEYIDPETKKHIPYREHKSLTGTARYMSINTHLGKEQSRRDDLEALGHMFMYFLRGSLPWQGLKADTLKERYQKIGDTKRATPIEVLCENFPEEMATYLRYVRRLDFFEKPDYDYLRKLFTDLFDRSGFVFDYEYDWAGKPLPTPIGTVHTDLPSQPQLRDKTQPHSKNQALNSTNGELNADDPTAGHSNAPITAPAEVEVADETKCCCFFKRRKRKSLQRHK
# Chain of UniProt Q9UL54 (whole entry, looked up): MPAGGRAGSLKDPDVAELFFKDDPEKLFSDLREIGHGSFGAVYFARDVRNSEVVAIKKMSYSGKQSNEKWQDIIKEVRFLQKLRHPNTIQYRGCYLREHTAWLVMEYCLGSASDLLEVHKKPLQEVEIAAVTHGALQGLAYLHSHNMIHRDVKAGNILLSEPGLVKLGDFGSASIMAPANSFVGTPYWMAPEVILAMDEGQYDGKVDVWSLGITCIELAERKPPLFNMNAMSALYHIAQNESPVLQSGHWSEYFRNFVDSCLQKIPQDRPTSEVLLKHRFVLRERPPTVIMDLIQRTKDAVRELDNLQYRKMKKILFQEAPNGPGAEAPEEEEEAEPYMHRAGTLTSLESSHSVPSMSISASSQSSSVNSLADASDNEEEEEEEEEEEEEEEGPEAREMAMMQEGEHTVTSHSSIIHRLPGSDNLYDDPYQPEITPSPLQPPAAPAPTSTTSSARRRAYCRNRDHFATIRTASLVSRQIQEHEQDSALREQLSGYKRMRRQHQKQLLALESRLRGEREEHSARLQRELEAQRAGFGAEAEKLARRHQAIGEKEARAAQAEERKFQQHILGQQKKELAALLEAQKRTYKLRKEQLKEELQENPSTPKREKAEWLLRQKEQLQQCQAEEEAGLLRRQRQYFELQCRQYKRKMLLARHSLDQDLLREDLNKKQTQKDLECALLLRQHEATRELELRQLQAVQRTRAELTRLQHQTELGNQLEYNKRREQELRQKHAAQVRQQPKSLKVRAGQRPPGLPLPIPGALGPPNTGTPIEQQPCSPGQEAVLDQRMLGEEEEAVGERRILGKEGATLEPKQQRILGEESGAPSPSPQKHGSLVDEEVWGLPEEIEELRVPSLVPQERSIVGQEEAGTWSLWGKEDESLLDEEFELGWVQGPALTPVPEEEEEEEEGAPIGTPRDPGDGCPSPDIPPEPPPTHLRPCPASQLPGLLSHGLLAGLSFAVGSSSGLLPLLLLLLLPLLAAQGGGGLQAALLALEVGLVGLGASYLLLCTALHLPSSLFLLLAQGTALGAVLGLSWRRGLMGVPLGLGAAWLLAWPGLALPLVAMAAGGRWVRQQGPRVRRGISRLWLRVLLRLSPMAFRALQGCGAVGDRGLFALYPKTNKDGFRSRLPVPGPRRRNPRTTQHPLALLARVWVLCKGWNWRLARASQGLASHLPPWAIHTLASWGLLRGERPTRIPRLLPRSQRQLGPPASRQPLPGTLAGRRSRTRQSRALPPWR
# Chain of UniProt Q8WTQ7 (whole entry, looked up): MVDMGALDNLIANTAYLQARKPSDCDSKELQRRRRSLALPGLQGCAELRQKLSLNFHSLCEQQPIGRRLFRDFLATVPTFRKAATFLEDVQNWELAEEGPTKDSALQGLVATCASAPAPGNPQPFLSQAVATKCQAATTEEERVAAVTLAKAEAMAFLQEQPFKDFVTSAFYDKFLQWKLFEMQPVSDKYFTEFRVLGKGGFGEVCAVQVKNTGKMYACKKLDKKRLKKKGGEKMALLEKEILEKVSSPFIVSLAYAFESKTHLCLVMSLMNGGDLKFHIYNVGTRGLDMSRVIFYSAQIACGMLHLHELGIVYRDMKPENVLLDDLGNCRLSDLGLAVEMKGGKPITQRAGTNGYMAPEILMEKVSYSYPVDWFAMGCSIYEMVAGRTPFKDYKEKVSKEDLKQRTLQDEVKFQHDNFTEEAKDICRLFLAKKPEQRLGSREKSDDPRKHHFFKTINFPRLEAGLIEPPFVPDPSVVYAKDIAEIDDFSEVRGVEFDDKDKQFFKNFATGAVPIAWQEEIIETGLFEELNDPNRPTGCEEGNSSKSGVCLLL
# Chain of UniProt P49841 (whole entry, looked up): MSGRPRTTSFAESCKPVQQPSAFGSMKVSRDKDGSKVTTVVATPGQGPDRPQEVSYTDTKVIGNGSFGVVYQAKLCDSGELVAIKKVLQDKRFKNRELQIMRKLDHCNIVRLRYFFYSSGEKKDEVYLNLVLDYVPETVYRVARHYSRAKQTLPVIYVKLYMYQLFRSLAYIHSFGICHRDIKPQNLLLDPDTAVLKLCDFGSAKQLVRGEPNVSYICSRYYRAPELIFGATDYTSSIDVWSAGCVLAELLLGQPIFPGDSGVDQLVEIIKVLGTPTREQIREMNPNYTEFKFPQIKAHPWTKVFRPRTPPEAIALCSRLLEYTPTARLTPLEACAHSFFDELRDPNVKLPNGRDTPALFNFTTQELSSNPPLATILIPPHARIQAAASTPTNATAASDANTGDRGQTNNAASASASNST
# Chain of UniProt Q99558 (whole entry, looked up): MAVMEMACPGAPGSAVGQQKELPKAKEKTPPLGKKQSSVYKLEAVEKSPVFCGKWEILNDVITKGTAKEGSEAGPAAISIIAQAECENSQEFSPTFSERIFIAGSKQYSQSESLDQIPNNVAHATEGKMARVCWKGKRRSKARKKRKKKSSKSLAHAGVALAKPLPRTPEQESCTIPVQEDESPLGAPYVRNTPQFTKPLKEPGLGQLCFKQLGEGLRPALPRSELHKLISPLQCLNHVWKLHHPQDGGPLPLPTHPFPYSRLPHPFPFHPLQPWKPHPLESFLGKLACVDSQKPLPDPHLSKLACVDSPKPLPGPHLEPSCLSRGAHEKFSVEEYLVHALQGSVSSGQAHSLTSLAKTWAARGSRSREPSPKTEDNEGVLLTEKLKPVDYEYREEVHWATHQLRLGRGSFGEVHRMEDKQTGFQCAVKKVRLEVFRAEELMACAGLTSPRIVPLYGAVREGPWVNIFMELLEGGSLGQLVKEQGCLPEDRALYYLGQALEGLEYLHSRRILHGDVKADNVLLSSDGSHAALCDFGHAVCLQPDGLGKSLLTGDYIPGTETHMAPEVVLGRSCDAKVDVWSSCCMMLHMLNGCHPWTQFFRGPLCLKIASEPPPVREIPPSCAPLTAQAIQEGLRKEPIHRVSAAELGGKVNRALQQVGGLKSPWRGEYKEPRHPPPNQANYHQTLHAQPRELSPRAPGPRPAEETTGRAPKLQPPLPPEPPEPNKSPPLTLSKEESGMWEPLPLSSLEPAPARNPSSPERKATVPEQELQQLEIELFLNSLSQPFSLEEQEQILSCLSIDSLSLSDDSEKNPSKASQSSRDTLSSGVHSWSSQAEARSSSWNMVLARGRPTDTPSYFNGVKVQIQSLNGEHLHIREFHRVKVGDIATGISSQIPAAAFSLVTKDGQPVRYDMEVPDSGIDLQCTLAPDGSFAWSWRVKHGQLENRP

# Series 1 — method: RNA Bind-n-Seq; form: RNA; matrix: in vitro; concentration: 200 nM; setting: whole 134-nt RNA, ends assumed; with: 150 mM LiCl; reference: input library; reading: higher = stronger binding; each molecule: 7-deaza-guanosine replaces G
# Target: Fragile X messenger ribonucleoprotein 1, C-terminal low-complexity region (Fmr1, Mus musculus, UniProt P35922)
# Shared flanks, not repeated: GGGAGUUCUACAGUCCGACGAUC … UGGAAUUCUCGGGUGUCAAGG
Sequence,log2 enrichment
GUCCUGUGCUACACAUCGUAUGUACCGAAUCGGGGAAAGGGGAAAAAGGGGUUUGGGGAAAGUAUUAUGUUACGCCGUUCGGAUCUGCAC,-0.558
ACCAUGCAGGUGGGCAUCUUUGGGAAGUGGGUCAAGGGGGGGAUAGGGAGGGGGGUAACACUUUGGGAACAGGUGGUCCCAGGUCGUUUC,1.36
UAACUUUCGAGGAGGAUCUGAUGGAUAUGGCAGUGGACGUGGAUUUGGGGAUGGCUAUAAUGGGUAUGGAGGAGGACCUGGAGGUGGCAA,0.443
CUCAAGUCCUGUGCUACACAUCGUAUGUACCGAAUCGGGGUUGGUUGGUUGGGAAAGUAUUAUGUUACGCCGUUCGGAUCUGCACUUCCA,-0.437
AAGUCCUGUGCUACACAUCGUAUGUACCGAAUCGGGAAAGGGAAAAAGGGAAAGGGAAAGUAUUAUGUUACGCCGUUCGGAUCUGCACUU,-0.498
CAAGUCCUGUGCUACACAUCGUAUGUACCGAAUCGGGUUUUUGGGAGGGAAAGGGAAAGUAUUAUGUUACGCCGUUCGGAUCUGCACUUC,-0.491
CUGUGCUACACAUCGUAUGUACCGAAUCGGGGUUUUUUGGGGUUUUUUGGGUUUUUUGGGGAAAGUAUUAUGUUACGCCGUUCGGAUCUG,1.3
CACAGACAACACGCACCCACACAGAAAAAGAGGGAAGGGGUUGGGAUGGGGACAGGGUGCACAGCAGGGCGGGGUAGGACCCCAGCCCCU,0.518

# Series 2 — target: CCNA1, cyclin fold, Cln2 fusion (human); method: yeast growth competition, sequencing; matrix: yeast; setting: weak parent motif; reference: not given; reading: higher = stronger binding; parent: viral docking peptide; KKVKRRLFETREL
Substitution,normalised enrichment score
R5A L7A,0.0968
K1A,0.664
K4A,0.27
F8A,0.426
R5K,0.286
R5A,0.358
L7A,0.708
L13A,0.48
F8L,0.188

# Series 3 — effect on: enzyme activity; mode: inhibitor; concentration: 0.5 µM; reference: control
# Structure (SMILES): N/C(=N\[N+](=O)[O-])N/N=C\c1ccc(-c2cccc([N+](=O)[O-])c2)o1
target,remaining activity
"Serine/threonine-protein kinase Nek6 (NEK6, Homo sapiens, UniProt Q9HC98)",93.4%
"Ribosomal protein S6 kinase alpha-2 (RPS6KA2, Homo sapiens, UniProt Q15349)",94.5%
"Serine/threonine-protein kinase TBK1 (TBK1, Homo sapiens, UniProt Q9UHD2)",104%
"Mitogen-activated protein kinase 3 (MAPK3, Homo sapiens, UniProt P27361)",88.4%
"Serine/threonine-protein kinase TAO2 (TAOK2, Homo sapiens, UniProt Q9UL54)",95.3%
"Tyrosine-protein kinase Lck (LCK, Homo sapiens, UniProt P06239)",98.6%
"Rhodopsin kinase GRK7 (GRK7, Homo sapiens, UniProt Q8WTQ7)",97%
"Serine/threonine-protein kinase Nek1 (NEK1, Homo sapiens, UniProt Q96PY6)",97.7%
"Mitogen-activated protein kinase kinase kinase 14 (MAP3K14, Homo sapiens, UniProt Q99558)",77.9%
"Casein kinase I isoform gamma-2 (CSNK1G2, Homo sapiens, UniProt P78368)",101%
"Tyrosine-protein kinase Mer (MERTK, Homo sapiens, UniProt Q12866)",92.3%
"Tyrosine-protein kinase JAK3 (JAK3, Homo sapiens, UniProt P52333)",103%
"Glycogen synthase kinase-3 beta (GSK3B, Homo sapiens, UniProt P49841)",117%
"Mitogen-activated protein kinase kinase kinase 5 (MAP3K5, Homo sapiens, UniProt Q99683)",92.5%

# Series 4 — method: RNAcompete; form: RNA; matrix: in vitro; concentration: 20 nM; setting: 7-mer, probes averaged, single round; reference: mean of 7-mers; reading: higher = stronger binding
# Target: PABPC1L2, full length, GST fusion (mouse, UniProt A0ABA7IW68)
# Target sequence (chain): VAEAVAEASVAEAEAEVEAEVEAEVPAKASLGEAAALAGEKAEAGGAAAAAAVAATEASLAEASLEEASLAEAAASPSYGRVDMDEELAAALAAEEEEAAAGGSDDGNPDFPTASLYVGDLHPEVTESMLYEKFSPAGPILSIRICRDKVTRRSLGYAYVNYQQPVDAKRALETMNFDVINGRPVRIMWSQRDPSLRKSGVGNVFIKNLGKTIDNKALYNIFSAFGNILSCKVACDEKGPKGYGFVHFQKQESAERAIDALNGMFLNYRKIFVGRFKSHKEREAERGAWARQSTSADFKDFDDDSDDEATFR
Sequence,7-mer Z-score
GCCGCUG,-0.146
AAACGUC,0.51
GAUUACU,-0.224
UCUAACC,-0.318
ACACCUA,-0.112
GGAUGAA,0.166
CAUUAGG,-0.11
ACAUUUC,-0.13
